Assay results pooled from the literature.
Lines come from different studies, so protocols differ. Numbers after ± are the reported error.
Cell line: HCT-116

SMILES	assay	setting	how to read	endpoint	value
CN(C)CCN1CCN(c2ccc3nc(-c4ccc5nc(-c6ccc(C(F)(F)F)cc6)[nH]c5c4)[nH]c3c2)CC1	SRB	10 µM, 48 h	–	growth percent	23.8%
CCn1c(-c2ccccc2)cs/c1=N/N=C(\C)c1c(O)c2ccccc2oc1=O	cell growth, MTT	–	baseline: IC50 BJ-1 over HCT-116	selectivity index	> 10.1
NC(=O)c1ccc(-c2ccccc2Cl)c2c3c([nH]c12)CCC(N)C3 (stereo not shown)	cell growth or viability	96 h	–	IC50	2.77 nM
Oc1c(Cl)cc(Cl)cc1/C=N/Nc1ncnc2sc3c(c12)CCCC3	cell growth or viability, CCK-8	48 h	–	IC50	580 nM
[BH3-][P+]1(c2ccccc2)CCCCC1	ELISA	IC50, 72 h	–	IL-6 level	4.6 ± 0.51 pg/mL
Cc1ccc(CN2C3(NC(c4ccc(C)cc4)C24C(=O)Nc2ccccc24)C(=O)Nc2ccccc23)cc1 (stereo not shown)	cell growth or viability, MTT	48 h	–	IC50	58900 nM
C1=[N+]2CCCC[N+]3=Cc4ccc5[n]4[Au-]23[n]2c1ccc2-c1nc2ccccc2nc1-5.F[P-](F)(F)(F)(F)F	NCI60 five-dose screen	–	–	TGI	4.49 -log M
CCN1C(=O)CS/C1=N/N=C(\C)c1c(O)c2ccccc2oc1=O	cell growth, MTT	–	baseline: IC50 BJ-1 over HCT-116	selectivity index	> 9.26
CCCC(CCC)C(=O)OCc1cn(-c2cc3ccccc3oc2=O)nn1	NCI60 single-dose screen	10 µM	–	growth percentage	91.5%
O=C(Nc1nnc2c1c(-c1ccc(Cl)cc1)nc1sc(=Cc3ccco3)c(=O)n12)c1ccccc1 (mixture of isomers)	SRB	10 µM, NCI60 single-dose screen, colon cancer	baseline: untreated	cell growth	38.3%
COc1ccc(NC(=O)c2c(Nc3ccccc3)sc(C(=O)N/N=C/c3ccc(OC)c(OC)c3)c2NC(C)=O)cc1	cell growth or viability, SRB	1 nM, 48 h	–	viability	103%
CC(=NN=c1sc(C(=O)c2ccccc2)nn1-c1ccccc1)c1ccc(S(=O)(=O)N2CCC(C)CC2)cc1	flow cytometry	3.66 µM (IC50), 72 h	–	cells in G2/M phase	22.7%
CCN(C(=O)c1cc(F)ccc1Oc1nncnc1N1CCC2(C1)CN([C@H](CCCN(C)CCOC)C(C)C)C2)C(C)C	cell growth or viability	72 h	–	GI50	> 10000 nM
O=[P@]1(c2ccccc2)CC[C@H](O)CC1	MTT	72 h	baseline: IC50 HaCaT over IC50 HCT-116	selectivity index	1
CSC(=S)N/N=C(\C)c1ccc(S(=O)(=O)N2CCC(C)CC2)cc1	flow cytometry	3.66 µM (IC50), 72 h	–	cells in S phase	31.2%
[BH3-][P@+]1(c2ccccc2)CC[C@@H](O)CC1	MTT	72 h	baseline: IC50 HaCaT over IC50 HCT-116	selectivity index	1
C/C(=N\NC(N)=S)c1c(O)c2ccccc2oc1=O	cell growth, MTT	–	baseline: IC50 BJ-1 over HCT-116	selectivity index	> 5.62
CSC(=NN=C(C)c1ccc(S(=O)(=O)N2CCC(C)CC2)cc1)N(C)C	flow cytometry	3.66 µM (IC50), 72 h	–	cells in G2/M phase	22.2%
[BH3-][P+]1(C2CCCCC2)CCCCC1	MTT	72 h	baseline: IC50 HaCaT over IC50 HCT-116	selectivity index	1.8

A few entries again:
SMILES	assay	setting	how to read	endpoint	value
[BH3-][P+]1(c2ccccc2)CCCCC1	ELISA	IC50, 72 h	–	IL-6 level	4.6 ± 0.51 pg/mL
Cc1ccc(CN2C3(NC(c4ccc(C)cc4)C24C(=O)Nc2ccccc24)C(=O)Nc2ccccc23)cc1 (stereo not shown)	cell growth or viability, MTT	48 h	–	IC50	58900 nM
C1=[N+]2CCCC[N+]3=Cc4ccc5[n]4[Au-]23[n]2c1ccc2-c1nc2ccccc2nc1-5.F[P-](F)(F)(F)(F)F	NCI60 five-dose screen	–	–	TGI	4.49 -log M
